Results pooled from the literature.
Protocols differ between the studies behind these lines. Several values in a cell are separate wells, animals, samples, runs or records. ± marks the error that the study gave.
Cell line: MDA-MB-231

Under “Hsp90α and Hsp90β levels”, `CCCc1cc2cc(-n3nc(CC)c4c3CC(C)(C)CC4=O)cc(N3CCC(O)CC3)c2c(=O)[nH]1` is recorded as “no effect” (Western blot; concentration not given, 24 h).
`Cc1nc2c(F)cc(-c3nc(Nc4ccc(CNC(=O)CCCCCC(=O)NO)cc4)ncc3F)cc2n1C(C)C` gave an inhibition of 96.2% (cell growth or viability, CCK-8; 0.3 µM, 48 h).
`CC(=O)OCC1=C2C(C)=CC(C)=[N+]2[B-](C)(C)n2c(C)cc(C)c21` gave an EC50 of over 50 µM (cell viability, MTT; 72 h, dark).
`COc1ccccc1-c1ccncc1C(=O)Nc1nnc(OCc2ccc(Cl)cc2)s1` has a colony count of 34.5 and 23 (1.5 µM).
`COc1c(C)c(OS(=O)(=O)c2ccccc2)c(C)c(O)c1C(=O)/C=C/c1ccccc1` has a selectivity index of 1.11 (reference: CL over MDA-MB-231).
With `Cc1nc2c(F)cc(-c3nc(Nc4ccc(C(=O)NCCCCCC(=O)NO)cc4)ncc3F)cc2n1C(C)C` the inhibition was 96% (cell growth or viability, CCK-8; 0.3 µM, 48 h).
The EC50 of `CCCNC(=O)[C@H]1O[C@@H]1C(=O)N[C@H](C(=O)N1CCC[C@H]1C(=O)OCC1=C2C(C)=CC(C)=[N+]2[B-](C)(C)n2c(C)cc(C)c21)[C@@H](C)CC` is reported as 2.5 ± 0.22 µM (cell viability, MTT; concentration not given, 4 h, irradiated 15 min up to 470 nm).
`C1=[N+]2CCCC[N+]3=Cc4ccc5[n]4[Au-]23[n]2c1ccc2-c1nc2ccccc2nc1-5.F[P-](F)(F)(F)(F)F` has a TGI of 4 -log M (NCI60 five-dose screen).
`Oc1cccc(-c2cccc(O)n2)n1.[Cl-].[Cl-].[Ru+2].c1ccc(-c2ccnc3c2ccc2c(-c4ccccc4)ccnc23)cc1.c1ccc(-c2ccnc3c2ccc2c(-c4ccccc4)ccnc23)cc1` gave a phototoxicity index of 40 (cell viability; reference: dark EC50 over light EC50).
`CC(=O)[O][Pd][c]1cc(C)ccc1N1N=C(C)C(C)(C)C1=O.CC(=O)[O][Pd][c]1cc(C)ccc1N1N=C(C)C(C)(C)C1=O`: “cells with decreased ΔΨm” 10.3 ± 1.03% (JC-1 flow cytometry; 25 µM, 24 h).
`C[C@@H]1CC[C@@H]([C@](O)(COCc2ccccc2)Cn2cnc3ccccc32)[C@H](OCc2ccccc2)C1` has an inhibition of 95.9% (cell growth or viability, MTT; 30 µM, 72 h).
For `Cc1cnc(Nc2ccc3c(c2)CCN(C(=O)/C=C/C(=O)c2ccc(Cl)cc2)C3)nc1-c1cnn(C(C)C)c1`, the inhibition was about 96% (cell growth or viability, MTT; 1 µM, 48 h).
For `COc1ccccc1CNC[C@](O)(COCc1ccccc1)[C@@H]1CC[C@@H](C)C[C@H]1OCc1ccccc1`, the inhibition was 96.8% (cell growth or viability, MTT; 30 µM, 72 h).
`CC(=O)[O][Pd][c]1ccccc1-n1nc(C)cc1C.CC(=O)[O][Pd][c]1ccccc1-n1nc(C)cc1C`: “G1 phase cells” 50 ± 2.97% (PI flow cytometry; 25 µM, 24 h).
The viability of `Cc1ccc(-n2cc(CSc3nc4ccccc4n3Cc3cn(-c4ccc(C)cc4)nn3)nn2)cc1` is reported as 60.1% (MTT; 3.91 ppm).
`O=C(/C=C/c1ccccc1)Nc1cc(-c2ccnc(N3CCC(CO)CC3)c2)ccn1` gave an inhibition of 77.4% (cell growth or viability, MTT; 5 µM).
The GI50 of `CCN(C(=O)c1cc(F)ccc1Oc1nncnc1N1CCC2(C1)CN([C@H](CCCN(C)CCOC)C(C)C)C2)C(C)C` is reported as over 10 µM (cell growth or viability; 72 h).
With `CC[C@H](C)/C=C/C=C/C=C/C(O)=C/C(=O)C(F)(F)F` the cell migration was 80 ± 5% (wound healing; 1 µM, 24 h; reference: DMSO).
With `C[C@@H]1CC[C@@H]([C@@](O)(CNCc2ccccc2F)COCc2ccccc2)[C@H](OCc2ccccc2)C1` the inhibition was 92.5% (cell growth or viability, MTT; 30 µM, 72 h).
For `C[C@H]1O[C@@H]2C3=C(O[C@]2(C)[C@@]1(O)C=O)C(=O)c1c(O)cccc1C3=O`, the EC50 was 7.84 µM (cell growth or viability, MTT; 48 h).
`CCCNC(=O)[C@H]1O[C@@H]1C(=O)N[C@H](C(=O)N1CCC[C@H]1C(=O)OCC1=C2C(C)=CC(C)=[N+]2[B-](CC)(CC)n2c(C)cc(C)c21)[C@@H](C)CC` gave an EC50 of over 50 µM (cell viability, MTT; 72 h, dark).
For `C[C@@H]1CC[C@@H]([C@@](O)(CNCc2ccc(F)cc2)COCc2ccccc2)[C@H](OCc2ccccc2)C1`, the inhibition was 94.8% (cell growth or viability, MTT; 10 µM, 72 h).
`CCCNC(=O)[C@H]1O[C@@H]1C(=O)N[C@H](C(=O)N1CCC[C@H]1C(=O)OCC1=C2C(C)=CC(C)=[N+]2[B-](F)(F)n2c(C)cc(C)c21)[C@@H](C)CC` gave an EC50 of over 50 µM (cell viability, MTT; 72 h, dark).
`COc1ccc(COC[C@](O)(CNCc2ccc(F)cc2)[C@@H]2CC[C@@H](C)C[C@H]2OCc2ccc(OC)cc2)cc1` has an inhibition of 95.8% (cell growth or viability, MTT; 10 µM, 72 h).
`O=C(CCl)c1ccccc1Nc1cccc(C(F)(F)F)c1` gave a GI50 of 12.3 µM (cell growth or viability, SRB; 48 h).
With `C[C@@H]1CC[C@@H]([C@@](O)(CNCc2ccc(F)cc2)COCc2ccc(F)cc2)[C@H](OCc2ccc(F)cc2)C1` the inhibition was 94.7% (cell growth or viability, MTT; 10 µM, 72 h).
With `CC(=O)OC[C@H]1O[C@@H](n2cc(CSc3nc4ccccc4n3Cc3cn([C@@H]4O[C@H](COC(C)=O)[C@@H](OC(C)=O)C(OC(C)=O)[C@H]4OC(C)=O)nn3)nn2)[C@H](OC(C)=O)C(OC(C)=O)[C@@H]1OC(C)=O` (stereo in doubt) the cytotoxicity was 58.5% (MTT; 3.91 ppm).
For `CCCc1cc2cc(-n3nc(C(F)(F)F)c4c3CC(C)(C)CC4=O)cc(N3CCC(O)CC3)c2c(=O)[nH]1`, c-Src level read “no effect” (Western blot; concentration not given, 24 h).
The viability of `CCc1c(C)c2ccc(OC(C)C)c(C)c2oc1=O` is reported as 88.8% (cell growth or viability, MTT; 31.25 µg/mL).
`C[C@@H]1CC[C@@H]([C@@](O)(CNCc2cccc(F)c2)COCc2ccccc2)[C@H](OCc2ccccc2)C1` has an inhibition of 97.1% (cell growth or viability, MTT; 30 µM, 72 h).
`CC(=O)[O][Pd][c]1ccccc1N1N=C(C)C(C)(C)C1=O.CC(=O)[O][Pd][c]1ccccc1N1N=C(C)C(C)(C)C1=O` — result for “late apoptotic cells”: 9.43 ± 1.02% (annexin V/PI flow cytometry; 25 µM, 24 h).
`COc1cccc(CNC[C@](O)(COCc2ccccc2)[C@@H]2CC[C@@H](C)C[C@H]2OCc2ccccc2)c1` gave an inhibition of 96.5% (cell growth or viability, MTT; 10 µM, 72 h).
With `CC(C)c1ccc(N(C)c2ccc3c(c2)OCC[C@H]3CNc2cnccc2C(=O)O)cc1` the EC50 was 0.132 µM (apoptosis, item: caspase-3/7; 72 h; reference: panobinostat).
